Measurements from different studies.
Every numbered part comes from another study and shows a few of its results, in no order. Substitutions count along the parent as printed.

Sample 1
Target: Histone acetyltransferase KAT6A, winged helix 1, GST fusion (KAT6A, Homo sapiens, UniProt Q92794, residues 1-85)
Technique: protein binding microarray
Form: double-stranded DNA, one strand shown
Matrix: in vitro
Tested at: not given
Setting: 8-mer, flanks averaged, mean of 2 arrays, mostly near background
Relative to: not given
Direction: higher = stronger binding
Residues (chain): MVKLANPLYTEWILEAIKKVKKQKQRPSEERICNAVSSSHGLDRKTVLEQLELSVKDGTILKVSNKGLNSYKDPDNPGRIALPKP
The E-score of `GCCATGCC` is reported as 0.277.
With `CAATCCTA` the E-score was -0.122.
The E-score of `CTCATTCC` is reported as -0.00144.
The E-score of `GGACTACA` is reported as -0.0194.
`GGACGCCA` has an E-score of 0.0733.
With `GCCAGGAC` the E-score was 0.046.
`GGCCCAAA` gave an E-score of -0.15.
`CGAACAGC` has an E-score of 0.099.
`AAGGTTAG` has an E-score of -0.133.
The E-score of `ATCGGGGA` is reported as -0.0441.
`CCTTATTA` gave an E-score of -0.159.
`CGTTCGGA` gave an E-score of 0.152.
`ATTACTCA` has an E-score of -0.0587.
For `ATGGTCTA`, the E-score was -0.136.
With `CTCTACAC` the E-score was -0.139.

Sample 2
Target: Ras GTPase-activating protein-binding protein 1, full length (G3BP1, Homo sapiens, UniProt Q13283)
UniProt Q13283, sequence (whole entry, looked up): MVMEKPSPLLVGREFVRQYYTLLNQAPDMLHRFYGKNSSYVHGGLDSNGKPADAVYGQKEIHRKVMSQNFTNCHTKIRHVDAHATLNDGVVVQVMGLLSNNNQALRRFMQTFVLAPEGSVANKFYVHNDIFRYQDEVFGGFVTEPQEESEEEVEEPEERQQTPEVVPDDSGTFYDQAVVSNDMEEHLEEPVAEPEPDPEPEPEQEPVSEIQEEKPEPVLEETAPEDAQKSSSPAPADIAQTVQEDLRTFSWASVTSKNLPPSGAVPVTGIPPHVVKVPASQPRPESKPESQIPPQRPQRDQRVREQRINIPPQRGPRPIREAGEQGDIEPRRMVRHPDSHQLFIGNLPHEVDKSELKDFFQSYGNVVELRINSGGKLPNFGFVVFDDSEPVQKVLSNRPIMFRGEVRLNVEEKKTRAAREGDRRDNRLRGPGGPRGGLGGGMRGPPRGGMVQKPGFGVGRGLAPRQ
Technique: RNA Bind-n-Seq
Form: RNA
Matrix: in vitro
Tested at: 200 nM
Setting: whole 134-nt RNA, ends assumed
Added: 150 mM KCl
Relative to: input library
Direction: higher = stronger binding
All sequences stand within: GGGAGUUCUACAGUCCGACGAUC … UGGAAUUCUCGGGUGUCAAGG
The log2 enrichment of `GUCCUGUGCUACACAUCGUAUGUACCGAAUCGGGAAAAAAGGGAAAAAAGGAAAAAAGGAAAGUAUUAUGUUACGCCGUUCGGAUCUGCA` is reported as -0.611.
`UCAAGUCCUGUGCUACACAUCGUAUGUACCGAAUCGGAAAGGAAAAAGGUUUGGAAAGUAUUAUGUUACGCCGUUCGGAUCUGCACUUCC` gave a log2 enrichment of -1.4.
For `AGUCCUGUGCUACACAUCGUAUGUACCGAAUCGGUUUUUGGGUUUUUGGGGUUUUUGGAAAGUAUUAUGUUACGCCGUUCGGAUCUGCAC`, the log2 enrichment was -0.843.
`CAAGUCCUGUGCUACACAUCGUAUGUACCGAAUCGGAAAAGGAAAAGGGAAAAGGAAAGUAUUAUGUUACGCCGUUCGGAUCUGCACUUC` has a log2 enrichment of -0.888.
`ACCAUGCAGGUGGGCAACUUUGGGAAGUGGGGCAAGGGGGGGAUAGGGAGGGGGGUAACACUUUGGGAACAGGUGGUCCCAGGUCGUUUC` gave a log2 enrichment of 1.28.
`ACCAUGCAGGUGGGCAUCUUUGGGAAGUGGGGCAAGGGGGGGAUAGGGAGGGGGGUGACACUUUGGGAACAGGUGGUCCCAGGUCGUUUC` has a log2 enrichment of 1.03.
The log2 enrichment of `UCAAGUCCUGUGCUACACAUCGUAUGUACCGAAUCGGAAAAAGGUGGAAAAAGGAAAGUAUUAUGUUACGCCGUUCGGAUCUGCACUUCC` is reported as -0.851.
`AAGUCCUGUGCUACACAUCGUAUGUACCGAAUCGGGUUUUUGGGAAAAAGGGAGGGAAAGUAUUAUGUUACGCCGUUCGGAUCUGCACUU` has a log2 enrichment of 0.226.
For `UCCUGUGCUACACAUCGUAUGUACCGAAUCGGCCCCCCGGGGCCCCCCGGCCCCCCGGGGAAAGUAUUAUGUUACGCCGUUCGGAUCUGC`, the log2 enrichment was -0.414.
`UCCUGUGCUACACAUCGUAUGUACCGAAUCGGUUUUUUGGUUUUUUGGGUUUUUUGGGGAAAGUAUUAUGUUACGCCGUUCGGAUCUGCA` has a log2 enrichment of -0.803.
The log2 enrichment of `UUUGGUUAUGAACAGGAUUCGGAUUCACGUCUUGCCAACCAAUCGGGGGAGGAUCACUCCAGUGCCCAGGUCUCAGGAACCUCUGUCUUG` is reported as -0.399.
With `CUCAAGUCCUGUGCUACACAUCGUAUGUACCGAAUCGGUUGGUUGGGUUGGGGAAAGUAUUAUGUUACGCCGUUCGGAUCUGCACUUCCA` the log2 enrichment was -0.195.
`ACCAUGCAGGUGGGCAUCUUUGGGAAGUGGGGCAAGGGGGGGAUAGGGAGGGGGGUAACACUUUAGGAACAGGUGGUCCCAGGUCGUUUC` gave a log2 enrichment of 1.24.
`CACAGACAACACGCACCCACACAGACACAGAGGGAAGGGGUUGGGAUGGGGAGAGGGUGCACAGCAGGGCGGGGUAGGACCCCAGCCCCU` gave a log2 enrichment of 1.84.

Sample 3
Read-out: peptide binding
Form: peptide
Matrix: yeast competitive growth
Added: B1-Cln2 chimera
Direction: direction not given
`RKLDLEGIGR` gave an enrichment score of -0.729.
`TTTTSPRTPPPLTVQD` gave an enrichment score of 1.12.
The enrichment score of `SCCKRKLVVGNGPEGP` is reported as -0.416.
`ARKRLELGNLGNPQ` gave an enrichment score of -0.526.
The enrichment score of `PPKPLKKLRFDIEGSD` is reported as 0.503.
`NNIRKALSFDNRGEEH` has an enrichment score of -0.303.
`GAEELEDLVHFSVSEL` has an enrichment score of 2.25.
For `LRRQLSFSED`, the enrichment score was 2.33.
`KVKRRLDLDIDGLQKE` has an enrichment score of -0.0425.
`NFETPEAETPIRSPFK` gave an enrichment score of 1.06.
`LRRKLFLDGNGSIS` gave an enrichment score of -1.39.
`VSRNLRSSLKSSLHTL` gave an enrichment score of -2.08.
For `DWDTVERQEEEAPSWD`, the enrichment score was 1.49.
With `RKLHFEDEVT` the enrichment score was 0.728.
For `PPTFLSTGEIHAFLSS`, the enrichment score was -0.0631.

Sample 4
Target: ABI1, truncated, D143A, DHFR fusion (Arabidopsis thaliana)
Technique: DHFR PCA, deep sequencing
Matrix: yeast
Setting: methotrexate growth selection, single substitutions
Added: (+)-ABA 2500 µM
Relative to: wild-type fitted maximum
Direction: higher = stronger binding
Starting sequence: PYL1, truncated, DHFR fusion (Arabidopsis thaliana); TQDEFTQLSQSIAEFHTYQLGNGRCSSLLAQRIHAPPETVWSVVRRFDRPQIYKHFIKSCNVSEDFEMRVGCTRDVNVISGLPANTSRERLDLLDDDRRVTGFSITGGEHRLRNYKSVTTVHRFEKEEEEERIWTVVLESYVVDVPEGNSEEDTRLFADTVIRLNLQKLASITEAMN; partner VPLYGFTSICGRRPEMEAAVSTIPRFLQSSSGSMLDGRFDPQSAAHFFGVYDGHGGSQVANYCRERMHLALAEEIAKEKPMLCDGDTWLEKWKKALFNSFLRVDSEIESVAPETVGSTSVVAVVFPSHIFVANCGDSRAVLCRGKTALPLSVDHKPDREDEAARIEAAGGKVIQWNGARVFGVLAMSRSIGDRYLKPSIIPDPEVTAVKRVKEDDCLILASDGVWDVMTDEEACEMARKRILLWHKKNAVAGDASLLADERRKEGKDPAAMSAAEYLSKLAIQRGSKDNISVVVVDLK
For `Q51I`, “relative binding score” read 84.5%.
Under “relative binding score”, `R99F` is recorded as 112%.
`E129T`: “relative binding score” 105%.
`N165W`: “relative binding score” 40.2%.
`S26M`: “relative binding score” 99.7%.
Under “relative binding score”, `T39S` is recorded as 101%.
`A30N`: “relative binding score” 98.5%.
`E127F` — result for “relative binding score”: 99.8%.
Under “relative binding score”, `F157I` is recorded as 89.6%.
`R45C` — result for “relative binding score”: 91.6%.
`S27H`: “relative binding score” 96.7%.
`T135A` — result for “relative binding score”: 92.3%.
For `L156I`, “relative binding score” read 95.8%.
Under “relative binding score”, `D153S` is recorded as 78%.
